Results collected from several papers.
Protocols differ between the studies behind these lines. “And” joins repeats or separate records; there may be more than shown. ± marks the error that the study gave.
GUK1: GUK1 (Homo sapiens, UniProt Q16774)
TOP2A: DNA topoisomerase 2-alpha (TOP2A, Homo sapiens, UniProt P11388)
ZBTB11/CRBN: ZBTB11/CRBN (Homo sapiens, UniProt O95625+Q96SW2)
PHO85: Negative regulator of the PHO system (PHO85, Candida albicans, UniProt Q9HGY5)

`Nc1nc2c(ncn2[C@@H]2O[C@H](COP(=O)(O)O)[C@@H](O)[C@H]2O)c(=O)[nH]1` has a reaction rate of 17.1 s⁻¹ and 11.4 s⁻¹ and 0.619 s⁻¹ (GUK1; enzyme activity, NADH-coupled; 7.812 µM).
Under “effective gating valence”, `CN(C)C(=O)C(CCN1CCC(O)(c2ccc(Cl)cc2)CC1)(c1ccccc1)c1ccccc1` is recorded as 1.09 elementary charges (Calcium-activated potassium channel subunit alpha-1, with LRRC26 γ1 subunit (KCNMA1, Homo sapiens, UniProt Q12791); BK current, inside-out patch clamp; excised membrane patch; 3 µM, γ1 subunit coexpressed, added: nominally 0 Ca2+ cytosolic).
`Cc1nc(CSc2nc(SCc3ccc(C(C)C)cc3)nc(=O)[nH]2)cs1`: “mean linear DNA” 2.7% (TOP2A; DNA cleavage; 125 µM).
For `CCCCCCCCCCCCCCCC(=O)NCCO`, “deacetylation fold increase” read 2 fold (NAD-dependent protein deacylase sirtuin-6 (SIRT6, Homo sapiens, UniProt Q8N6T7); enzyme activity, activator, HPLC-MS; 10 µM, 30 min, 37 °C, 1% DMSO, added: H3K9Ac peptide 40 µM with NAD 500 µM; reference: no compound).
With `O=C1CCC(N2C(=O)C=C(Nc3cccc(C4CCN(CCc5ccc(C(F)(F)F)c(Cl)c5)CC4)c3)C2=O)C(=O)N1` (stereo not drawn) the Dmax was 34% (ZBTB11/CRBN; protein degradation, degrader, HiBiT luminescence; MOLT-4).
The remaining activity of `O=C(NC1CCC1)c1ccc2nc(-c3cccc(NS(=O)(=O)NCCN4CCCCC4)c3)cn2c1` is reported as 89% (Mast/stem cell growth factor receptor Kit (KIT, Homo sapiens, UniProt P10721, D816H); enzyme activity; 10 µM).
For `Nc1ncnc2c1ncn2[C@@H]1O[C@H](COP(=O)(O)CP(=O)(O)OP(=O)(O)O)[C@@H](O)[C@H]1O`, the calcium influx was 1.03% and 0% and 6.81% and 0.489% (P2X purinoceptor 1 (P2RX1, Homo sapiens, UniProt P51575, K140A); calcium influx; 31.6 nM; reference: ionomycin response).
`CN1CCN(c2cc(-c3ccncc3)c(-c3ccc4ccccc4c3)nn2)CC1` gave an activation of -2.8% (Prostaglandin E2 receptor EP4 subtype (PTGER4, Homo sapiens, UniProt P35408); agonist, FLIPR; 12.5 µM).
`COCCNc1nc2ccc(C#CC3(O)CCCCC3)cc2n1-c1ccnc(N)n1`: “remaining kinase activity” 27.6% (Mitogen-activated protein kinase kinase kinase kinase 4 (MAP4K4, Homo sapiens, UniProt O95819); enzyme activity, inhibitor, Z'-LYTE; 1 µM; reference: no-inhibitor control).
For `COc1cc(Nc2ncc3c(n2)-c2ccc(Cl)cc2C(c2c(F)cccc2OC)=NC3)ccc1C(=O)O`, the remaining activity was 11% (YES1; kinase activity; 1 µM).
The binding stoichiometry of `COc1cc(/C=C/c2ccc(O)cc2)cc(OC)c1` is reported as 0.91 (O-methyltransferase (Sorghum bicolor, UniProt A0A1B6PFV1); ITC; concentration not given, added: SAM+).
`CC(=C/C(=O)O)/C=C/C=C(\C)C1C=C2C(C)(C)CCCC2(C)O1` (stereo not drawn): “Pearson correlation coefficient” 0.59 (Rhodopsin (RHO, Homo sapiens, UniProt P08100, E181K); ER retention, immunostaining co-localization, item: opsin with calnexin; COS-7 transfected E181K; 5.00 µM).
For `COc1cc(C(=O)NS(=O)(=O)c2ccccc2C)ccc1Cc1cn(C)c2ccc(NC(=O)OC3CCCC3)cc12`, the inhibition was 48.8% and 47% and 31.7% and 65.3% and 66.8% and 71% (Volume-regulated anion channel subunit LRRC8C, part LRRC8A IL1 chimera (LRRC8C, Homo sapiens, UniProt Q8TDW0, C43G); ion current, inhibitor, whole-cell patch clamp; HCT LRRC8-/- cells; 3 µM, +100 mV).
With `Nc1ccc(C(=O)O)cc1` the current density was -5.24 pA/pF and -3.81 pA/pF and -6.07 pA/pF and -1.62 pA/pF and -9.96 pA/pF and -1.79 pA/pF and -13.4 pA/pF and -9.08 pA/pF (BEST1, with wild-type BEST1 (Homo sapiens, UniProt O76090, R218H); ion current, whole-cell patch clamp; HEK293 co-expressing mutant and wild-type; concentration not given, voltage -40 mV).
`Cc1cc(-c2ccnc3[nH]cc(F)c23)cc(F)c1[C@@]1(O)[C@H](C)CN(C2CCS(=O)(=O)CC2)C[C@@H]1C` gave an inhibition of 19.8% (Serine/threonine-protein kinase 38 (STK38, Homo sapiens, UniProt Q15208); ATP probe binding, KiNativ, item: Lys1 site; HEK293T cell lysate; 10 µM).
`CC1=C(Nc2cccc(C3(NCCc4ccc(C(F)(F)F)c(Cl)c4)CCC3)c2)C(=O)N(C2CCC(=O)NC2=O)C1=O` (stereo not drawn) gave a Dmax of 50% (ZBTB11/CRBN; protein degradation, degrader, HiBiT luminescence; MOLT-4).
`CCCCc1cn2c(N)nc3ccccc3c2n1`: EC50 “inactive” (Toll-like receptor 7 (TLR7, Homo sapiens, UniProt Q9NYK1); reporter gene, agonist, NF-κB reporter; HEK-Blue TLR7).
Under “outward current density”, `CCN(CC)CCNC(=O)C1CCN(c2ccc3nnc(-c4cccc(C)c4)n3n2)CC1` is recorded as 5.9 ± 1.4 pA/pF (CatSper channel complex (Homo sapiens, UniProt Q7RTX7+Q86XQ3+Q8NEC5+Q96P56); ion current, whole-cell patch clamp; human sperm; 10 µM, at +80 mV).
`CCCCCCCC/C=C\CCCCCCCC(=O)NCCc1ccc(O)c(O)c1`: “maximal open probability” 0.77 ± 0.14 (Transient receptor potential cation channel subfamily V member 1 (Trpv1, Mus musculus, UniProt Q704Y3, S511A); ion current, agonist, whole-cell patch clamp; S511A; reference: 3 mM 2-APB).
`N#Cc1ccn2c(-c3ccncc3)c(-c3ccc(F)cc3)nc2c1`: “log2 fold change” 0.206 (PHO85; kinase binding, competitor, MIB/MS competition, item: PHO85; Candida albicans cell lysate; 100 nM; reference: DMSO).
The protein adduct of `CCC1(O)CCCN(C(=O)c2ccc(-c3ccc(F)c(NC(=O)CCl)c3)cc2)C1` (stereo not drawn) is reported as 81% (DNA dC->dU-editing enzyme APOBEC-3A (Homo sapiens, UniProt P31941); covalent modifier, intact protein mass spectrometry, item: adduct +26309 Da; 250 µM, 3 h, 10-fold molar excess).
The Hill coefficient of `N#Cc1ccc2[nH]cc(CCCCN3CCN(c4ccc5oc(C(N)=O)cc5c4)CC3)c2c1` is reported as 1.44 ± 0.28 (Sodium-dependent serotonin transporter (SLC6A4, Homo sapiens, UniProt P31645, P561G); [3H]5-HT uptake, inhibitor; COS-7).
`Nc1ccn([C@H]2C[C@H](O)[C@@H](CO)O2)c(=O)n1` has a Km of 2350 ± 380 µM (deoxyribonucleoside phosphotransferase I (Trichomonas vaginalis); substrate; added: p-nitrophenylphosphate 100 mM).
The ΔH of `CC(=O)N[C@H](C(=O)N1C[C@H](O)C[C@H]1C(=O)NCc1ccc(-c2scnc2C)cc1)C(C)(C)SCCCCCCNC(=O)C[C@@H]1N=C(c2ccc(Cl)cc2)c2c(sc(C)c2C)-n2c(C)nnc21` is reported as -12.73 ± 0.04 kcal/mol (Bromodomain-containing protein 3, BD2 (BRD3, Homo sapiens, UniProt Q15059); binding, ITC; 25 °C, compound in cell, protein in syringe).
For `CC(NC(=O)CCCc1ccc2ccc3cccc4ccc1c2c34)C(=O)NO` (stereo not drawn), the TΔS° was 5.3 kcal/mol (Histone deacetylase 8 (HDAC8, Homo sapiens, UniProt Q9BY41); ITC; Tris-HCl buffer; 298 K).
For `O=c1nc(SCc2ccc(C(F)(F)F)cc2)nc(SCc2csc3ccc(Cl)cc23)[nH]1`, “mean decatenated DNA” read 0% (TOP2A; decatenation; 1.95 µM).
The remaining binding of `C=CC(=O)N1CCC(COCC(=O)N2CCN(c3nc(-c4cnc(N)nc4C(F)F)nc(N4CCOC[C@@H]4C)n3)CC2)CC1` is reported as 100% (cGMP-dependent protein kinase 2 (PRKG2, Homo sapiens, UniProt Q13237); KINOMEscan; 1 µM).
`N#CSCc1cc(=O)oc2cc(O)ccc12` has a selectivity ratio of over 4240 (Carbonic anhydrase 12 (CA12, Homo sapiens, UniProt O43570); stopped-flow CO2 hydration; reference: Ki CA I over Ki CA XII).
`COc1cc(-c2cncc3c2CN(C)Cc2cc(N4CCNCC4)ccc2-3)cc(OC)c1OC` gave a remaining activity of 106% (Dual specificity protein kinase TTK (TTK, Homo sapiens, UniProt P33981); kinase activity; 1 µM, human enzyme, added: ATP 10 µM; reference: DMSO control).
`COc1cccc2c(Nc3ccc4[nH]c(C(=O)N/N=C/c5ccc(SC)cc5)cc4c3)cc(C)nc12` gave an activation of 1.23 fold (Nuclear receptor subfamily 5 group A member 2 (NR5A2, Homo sapiens, UniProt O00482); reporter gene, Gal4 hybrid reporter; 3 µM; reference: vehicle).
`CN1CCN(c2ccc([N+](=O)[O-])cc2NC(=O)c2nn(C)c3ccccc23)CC1` gave a binding response of 27% (WD repeat-containing protein 5 (WDR5, Homo sapiens, UniProt P61964); surface plasmon resonance; concentration not given).
`c1coc(-c2n[nH]cc2-c2ccnc3ccccc23)c1`: “log2 fold change” -0.09 (PHO85; kinase binding, MIB/MS competition; Candida albicans lysate; 10 µM; reference: DMSO, negative = stronger binding).
`[H]/N=C(/N)NCC(=O)O` — result for “normalised MST signal”: -0.0599 (Sodium- and chloride-dependent taurine transporter (SLC6A6, Homo sapiens, UniProt P31641, G62A); binding, microscale thermophoresis; 488 nM, room temperature, added: 50 nM labelled protein; higher = more binding).
`CC[C@@H](C)[C@@H](NC(=O)[C@@H](Cc1ccc(O)cc1)NC(=O)[C@H]1CCCN1C(=O)[C@@H](CCCNC(=N)N)NC(=O)[C@H](N)Cc1c[nH]cn1)C(=O)N[C@H](C)C(=O)N[C@H](Cc1c[nH]cn1)C(=O)N[C@H](CCCNC(=N)N)C(=O)N[C@@H](C(=O)N[C@H](Cc1ccc(O)cc1)C(=O)N[C@H](CO)C(=O)N[C@H](Cc1ccccc1)C(N)=O)C(C)C` — result for “surface TFRC expression”: 0.563 (Transferrin receptor protein 1 (Tfrc, Mus musculus, UniProt Q62351); flow cytometry; B16; 24 h, unit not given; reference: 0 h).
`CC[C@@H]1[C@H](F)C(=O)N[C@@H]1COc1nccc2cc(C(N)=O)c(OC)cc12` has an inhibition of 5.2% (EKC/KEOPS complex subunit TP53RK (TP53RK, Homo sapiens, UniProt Q96S44); ATP probe binding, KiNativ profiling, item: ATP loop probe site; THP-1 cell lysate; 0.04 mM).
`CCN1CCC[C@H]1CNC(=O)c1c(O)c(Cl)cc(Cl)c1OC` — result for “log2 fold change”: 0.324 (Retinoic acid-induced protein 3 (GPRC5A, Homo sapiens, UniProt Q8NFJ5); β-arrestin recruitment, TANGO luminescence, item: GPRC5A; concentration not given; reference: basal luminescence).
`O=C(O)C1CCCNC1` (stereo not drawn) gave a fraction bound of 0.00186 (Sodium- and chloride-dependent taurine transporter (SLC6A6, Homo sapiens, UniProt P31641, Y138A); binding, microscale thermophoresis; 37.6 nM, fitted curve; higher = more binding).
`CSCC[C@H](N)C(=O)Nc1ccc2ccccc2c1` has a Km of 2.9 µM (rat neuron-specific aminopeptidase; substrate).
`O=c1cc(-c2ccc([N+](=O)[O-])cc2)[nH]c2c(-c3ccc(Cl)cc3)c(Cc3ccccc3)nn12`: “melting temperature shift” 2.7 °C (PDZ domain-containing protein GIPC1 (GIPC1, Homo sapiens, UniProt O14908); thermal stability, binder, thermal proteome profiling; RD, cell lysate; 50 µM, 0.5% DMSO; reference: DMSO vehicle).
`O=S(=O)(O)O` gave a reaction velocity of 0.113 µM/s and 0.101 µM/s and 0.0883 µM/s (GUK1; enzyme activity, NADH-coupled; 10 mM, added: ATP 2000 µM).
`O=C(COP(=O)(O)O)[C@@H](O)[C@H](O)[C@H](O)COP(=O)(O)O`: “thermal stability ratio” 0.37 and 0.667 and 0.65 (PNPT1 (Homo sapiens, UniProt Q8TCS8); thermal proteome profiling; HepG2 cell lysate; concentration not given, 57 over 37 °C; reference: compound over control).
`O=C(CCCc1ccccc1)C(=O)NCCc1ccc(Oc2ccc(C(F)(F)F)cn2)cc1`: “probe-enriched protein abundance” 2910 a.u. and 2460 a.u. and 2530 a.u. (Dipeptidyl peptidase 4 (Dpp4, Mus musculus, UniProt P28843); inhibitor; mouse, BAT cytosol proteome; 10 µM; reference: DMSO, lower = stronger inhibition).
For `CC(C)c1cccc2c(-c3ccc(Cl)cc3)cc(-c3ccc(-c4ccc(C(=O)O)cc4)[nH]3)nc12`, the selectivity ratio was 48 fold (Retinoic acid receptor gamma (RARG, Homo sapiens, UniProt P13631); reporter gene, antagonist; reference: IC50 RARα over IC50 RARG).
With `O=c1nc(SCc2cc(F)cc(C(F)(F)F)c2)nc(SCc2csc3ccc(Cl)cc23)[nH]1` the linear DNA was 11.4% (TOP2A; DNA cleavage; 125 µM, replicate 1).
The remaining activity of `O=C(O)c1ccc(Nc2ncc3c(n2)-c2ccc(Cl)cc2C(c2c(F)cccc2F)=NC3)cc1` is reported as 100% (ROCK-II(h); kinase activity; 1 µM).

Some of these lines once more:
For `COc1cc(Nc2ncc3c(n2)-c2ccc(Cl)cc2C(c2c(F)cccc2OC)=NC3)ccc1C(=O)O`, the remaining activity was 11% (YES1; kinase activity; 1 µM).
The binding stoichiometry of `COc1cc(/C=C/c2ccc(O)cc2)cc(OC)c1` is reported as 0.91 (O-methyltransferase (Sorghum bicolor, UniProt A0A1B6PFV1); ITC; concentration not given, added: SAM+).
`CC(=C/C(=O)O)/C=C/C=C(\C)C1C=C2C(C)(C)CCCC2(C)O1` (stereo not drawn): “Pearson correlation coefficient” 0.59 (Rhodopsin (RHO, Homo sapiens, UniProt P08100, E181K); ER retention, immunostaining co-localization, item: opsin with calnexin; COS-7 transfected E181K; 5.00 µM).
